Assay results of several laboratories.
Lines come from different studies, so protocols differ. Values joined by “and” are separate records of one study, mostly repeats; a detail may differ. ± gives the spread as reported.
CDK2 with cyclin A: Cyclin-dependent kinase 2, with cyclin A (CDK2, Homo sapiens, UniProt P24941)

CN1CC(Oc2cnc(C#N)cc2-c2ccn3nc(NC(=O)C4CC4)cc3c2)C1 — EC50 (human monocyte-derived macrophages; cytokine release increase, refers to: IL-10; with: LPS): 0.7 µM
Cc1ccc(-c2nc3ccccc3s2)cc1NC(=O)c1cc([N+](=O)[O-])c(NCCN)cc1Cl — EC50 (J774.A1; cytotoxicity): 5 ± 4.5 µM
CC(C)C[C@H](NC(=O)C[C@H](O)[C@H](CC(C)C)NC(=O)[C@H](Cc1c[nH]cn1)NC(=O)CNC(=O)[C@@H](NC(=O)[C@H](C)NC(=O)[C@H](Cc1c[nH]c2ccccc12)NC(=O)[C@H](CCC(N)=O)NC(=O)[C@@H](Cc1ccccc1)NC(=O)COCCOCCNC(=O)CCC(C(=O)O)N1CCN(CC(=O)O)CCN(CC(=O)O)CCN(CC(=O)O)CC1)C(C)C)C(N)=O (stereo partly drawn) [lutetium-177 labelled] — tissue uptake (BALB/c nu/nu mice, small intestine; 250 pmol, 1 h, with: PA 300 µg): 0.7 ± 0.3 %ID/g
O=C(Nc1cncc(-c2nc3ccccc3o2)c1)c1ccc(N2CCNCC2)c([N+](=O)[O-])c1 — EC50 (J774.A1; cytotoxicity): 0.9 µM
CCc1cc(C(=O)NC)c2nccc(N3CCc4c(cc(Cn5ccnc5)cc4-c4cn(C)nc4C(F)(F)F)C3=O)c2c1 — liver weight change (Sprague Dawley rat; oral, 100 mg/kg once daily, 7 days; baseline: vehicle): -1.1%
CCCC1=C(C(=O)OCC)C(c2ccc(Cl)cc2C)C2=C(CC(c3ccc(Cl)c(OC)c3)OC2=O)N1 (mixture of isomers) — EC50 (J774.A1; cytotoxicity): > 20 µM
Cn1cc(-c2ccc(-c3cncc(Cl)c3N3CCC4(CCNC4=O)CC3)cc2)cn1 — log2 fold change (COLO 205; gene expression, microarray, refers to: LGALS1 mRNA; concentration not given, 2 h; baseline: untreated cells): 3.43
O=C(NN=Cc1ccc(Cl)cc1)C1CC(=O)N(c2ccc(F)cc2F)C1 (stereo not drawn) — EC50 (PPC-1; cell viability, MTT; 72 h): 36.6 ± 6.1 µM
CCOC(=O)C1=C(C)NC2=C(C(=O)CC(c3ccc(Cl)c(OC)c3)C2)C1c1ccc(Cl)cc1C (mixture of isomers) — EC50 (J774.A1; cytotoxicity): > 20 µM
CCn1cc(-c2cc(Cn3ccnc3)cc3c2CCN([C@H](c2cc(OC)ccn2)C2CC2)C3=O)c(C(F)(F)F)n1 — EC50 (MOLM-13; cell growth, inhibitor; 120 h): 0.37 µM
Cc1cc(OCc2nnc(SC3CCCC3)n2-c2cccnc2)ccc1-c1ccc(S(C)(=O)=O)cc1 — EC50 (BRD4-HiBiT cells; BRD4 degradation rescue, inhibitor; 24 h, 50% degradation rescued, with: dBET6 500 nM): 5.66 µM
CCOC(=O)C1=C(C)NC2=C(C(=O)OC(c3ccc(OC)c(OC)c3)C2)C1c1ccccc1Cl (mixture of isomers) — EC50 (J774.A1; cytotoxicity): > 20 µM
Nc1ncnc2c1ncn2[C@@H]1O[C@H](CO)[C@@H](O)[C@H]1O — EC50 (HeLa, empty vector; calcium mobilization): 2.39 µM
COC[C@H](NC(=O)c1cnc(C)s1)C(=O)N[C@@H](COC)C(=O)N[C@@H](Cc1ccccc1)C(=O)[C@@]1(C)CO1 — EC50 (BRD4-HiBiT cells; BRD4 degradation rescue, inhibitor; 4 h, with: dBET6 500 nM): 9.41 µM
CCn1cc(-c2cc(Cn3ccoc3=N)cc3c2CCN([C@@H](C)c2cc(OC)ccn2)C3=O)c(C(F)(F)F)n1 — EC50 (SW837; cell growth, inhibitor; 120 h): 3.05 µM
COc1cc(-c2oc3cc(O)cc(O)c3c(=O)c2O[C@@H]2O[C@H](CO)[C@@H](O)[C@H](O)[C@H]2O)ccc1O — EC50 (HepG2-ARE-Luc; Nrf2-ARE reporter gene, activator): 0.28 µM
Cc1nn(-c2nc3c(F)cc(F)cc3s2)c(O)c1C(c1ccccc1C(F)(F)F)c1c(C)nn(-c2nc3c(F)cc(F)cc3s2)c1O — EC50 (THP1-Dual; IFN reporter gene, inhibitor; with: HT-DNA): 18.4 µM and 17.9 µM and 18.6 µM
CCOC(=O)C1=C(C)NC2=C(C(=O)OC(c3ccc(OC)c(OC)c3)C2)C1c1ccccc1 (stereo not drawn) — EC50 (J774.A1; cytotoxicity): > 20 µM
O=C(COc1ccccc1[N+](=O)[O-])Nc1ccccc1N1CCOCC1 — Kd (CDK2 with cyclin A): > 100 µM
COc1ccc(S(=O)(=O)Nc2ccc(NS(=O)(=O)c3ccc(OC)cc3)c3ccccc23)cc1 — EC50 (SH-SY5Y Neh2-luc; reporter gene; 3 h): > 30 µM
CCCC1=C(C(=O)OCC)C(c2ccc(Cl)cc2C)C2=C(CC(c3ccc(OC)c(OC)c3)OC2=O)N1 (mixture of isomers) — EC50 (J774.A1; cytotoxicity): > 20 µM
CC(C)C[C@H](NC(=O)CNC(=O)c1cc(Cl)ccc1Cl)B(O)O — EC50 (BRD4-HiBiT cells; BRD4 degradation rescue, inhibitor; 8 h, 50% degradation rescued, with: dBET6 500 nM): 0.149 µM
Cc1cc(Cl)c(Cl)cc1NC(=O)c1cc([N+](=O)[O-])c(F)cc1Cl — EC50 (J774.A1; cytotoxicity): 1.8 µM
Cc1nn(-c2nc3c(F)cc(F)cc3s2)c(O)c1C(c1cccc(C(F)(F)F)c1)c1c(C)nn(-c2nc3c(F)cc(F)cc3s2)c1O — EC50 (THP1-Dual; IFN reporter gene, inhibitor; with: HT-DNA): 17.9 µM and 14.7 µM and 15 µM
CN1CCN(c2cc(Cl)c(C(=O)Nc3cncc(-c4nc5ccccc5s4)c3)cc2[N+](=O)[O-])CC1 — EC50 (J774.A1; cytotoxicity): 1.8 ± 1.1 µM
CCOC(=O)C1=C(C)NC2=C(C(=O)OC(c3ccc(OC)c(OC)c3)C2)C1c1ccccc1C (stereo not drawn) — EC50 (J774.A1; cytotoxicity): > 20 µM
CC(C)C[C@H](NC(=O)[C@H](Cc1ccccc1)NC(=O)c1cnccn1)B(O)O — EC50 (BRD4-HiBiT cells; BRD4 degradation rescue, inhibitor; 8 h, 50% degradation rescued, with: dBET6 500 nM): 0.0847 µM
CNCc1ccc(-c2[nH]c3cc(F)cc4c3c2CCNC4=O)cc1 — diarrhoea incidence (human patients; oral, 600 mg twice daily, grade 5): 0%
Nc1cccc2c1CN(C1CCC(=O)NC1=O)C2=O (stereo not drawn) — EC50 (BRD4-HiBiT cells; BRD4 degradation rescue, inhibitor; 24 h, 50% degradation rescued, with: dBET6 500 nM): 1.92 µM
O=C(Nc1cccc(-c2nc3ccccc3o2)c1)c1cc([N+](=O)[O-])c(F)cc1F — EC50 (J774.A1; cytotoxicity): 2 ± 0.3 µM
CCCC1=C(C(=O)OCC)C(c2ccccc2Cl)C2=C(CC(c3ccc(OC)c(OC)c3)CC2=O)N1 (stereo not drawn) — EC50 (J774.A1; cytotoxicity): > 20 µM
Cc1ccc(-c2nc3ccccc3s2)cc1NC(=O)c1cc([N+](=O)[O-])c(F)cc1F — EC50 (J774.A1; cytotoxicity): 3.1 µM
Cc1nn(-c2nc3c(F)cc(F)cc3s2)c(O)c1C(c1ccccc1C(=O)O)c1c(C)nn(-c2nc3c(F)cc(F)cc3s2)c1O — EC50 (THP1-Dual; IFNB1 luciferase reporter, inhibitor; with: HT-DNA): > 20 µM
O=C(Nc1ccc(S(=O)(=O)Nc2ncccn2)cc1)c1c(Cl)cccc1Cl — Kd (CDK2 with cyclin A): > 100 µM
CCN(N=Cc1ccc(Br)cc1)C(=O)C1CC(=O)N(c2ccc(F)cc2F)C1 (stereo not drawn) — EC50 (PPC-1; cell viability, MTT; 72 h): 28.9 ± 3.1 µM
CCOC(=O)C1=C(C)NC2=C(C(=O)OC(c3ccc(OC)c(OC)c3)C2)C1c1cccc(OC)c1 (stereo not drawn) — EC50 (J774.A1; cytotoxicity): > 20 µM
Cc1ccc(-c2nc3ccccc3s2)cc1NC(=O)c1cc([N+](=O)[O-])c(N2CC3(CNC3)C2)cc1Cl — EC50 (J774.A1; cytotoxicity): 3.9 µM
O=C(NN=Cc1ccc(Br)cc1)C1CC(=O)N(c2ccc(F)cc2F)C1 (stereo not drawn) — EC50 (PPC-1; cell viability, MTT; 72 h): 27.3 ± 2.3 µM
O=C1C[C@@H](c2ccc(O)cc2)Oc2cc(O)cc(O)c21 — EC50 (HepG2-ARE-Luc; Nrf2-ARE reporter gene, activator): 31 µM
COc1cnc2cccc(N3CCc4c(cc(Cn5ccnc5C)cc4-c4cn(C)nc4C(F)(F)F)C3=O)c2c1 — EC50 (MINO; cell growth, inhibitor; 120 h): 1.23 µM
CC(C)[C@H](NC(=O)[C@H](Cc1ccc(O)cc1)NC(=O)[C@H](Cc1ccc(O)cc1)NC(=O)[C@@H]1CCCN1C(=O)[C@H](CCC(=O)O)NC(=O)[C@H](CCC(=O)O)NC(=O)[C@H](Cc1c[nH]c2ccccc12)NC(=O)[C@@H]1CCCN1C(=O)[C@@H](NC(=O)[C@H](CCC(N)=O)NC(=O)c1ccc2c(c1)C(=O)OC21c2ccc(O)cc2Oc2cc(O)ccc21)C(C)C)C(=O)N[C@H](C(=O)N[C@@H](CCCCN)C(=O)N[C@@H](CCCCN)C(=O)N[C@@H](CO)C(=O)N[C@@H](CO)C(=O)NCC(=O)NCC(N)=O)C(C)C — plasma concentration (refers to: total compound; human, plasma; intravenous infusion, 40 mg, 30 min): 288 ng/mL
NS(=O)(=O)OC[C@H]1C[C@@H](Nc2ccnc3cc(-c4cccc(SC(F)(F)F)c4)nn23)[C@H](O)[C@@H]1O — EC50 (BRD4-HiBiT cells; BRD4 degradation rescue, inhibitor; 8 h, 50% degradation rescued, with: dBET6 500 nM): 0.285 µM
Cc1cc(Cl)c(Cl)cc1NC(=O)c1ccc(N2CCNCC2)nc1 — EC50 (J774.A1; cytotoxicity): 5.2 µM
CC(C)C[C@H](NC(=O)C[C@H](O)[C@H](CC(C)C)NC(=O)[C@H](Cc1c[nH]cn1)NC(=O)CNC(=O)[C@@H](NC(=O)[C@H](C)NC(=O)[C@H](Cc1c[nH]c2ccccc12)NC(=O)[C@H](CCC(N)=O)NC(=O)[C@@H](Cc1ccccc1)NC(=O)COCCOCCNC(=O)CN1CCN(CC(=O)O)CCN(CC(=O)O)CCN(CC(=O)O)CC1)C(C)C)C(N)=O [lutetium-177 labelled] — tissue uptake (BALB/c nu/nu mice, female, lumbar lymph node metastases; intravenous, 50 pmol, 1 h): 19 ± 4 %ID/g
N#Cc1ccc(N2CCN(Cc3ccc(COc4cccc5c4CN([C@H]4CCC(=O)NC4=O)C5=O)cc3)CC2)c(F)c1 — EC50 (BRD4-HiBiT cells; BRD4 degradation rescue, inhibitor; 6 h, with: dBET6): 0.026 µM

Repeated from above:
CN1CC(Oc2cnc(C#N)cc2-c2ccn3nc(NC(=O)C4CC4)cc3c2)C1 — EC50 (human monocyte-derived macrophages; cytokine release increase, refers to: IL-10; with: LPS): 0.7 µM
Cc1ccc(-c2nc3ccccc3s2)cc1NC(=O)c1cc([N+](=O)[O-])c(NCCN)cc1Cl — EC50 (J774.A1; cytotoxicity): 5 ± 4.5 µM
CC(C)C[C@H](NC(=O)C[C@H](O)[C@H](CC(C)C)NC(=O)[C@H](Cc1c[nH]cn1)NC(=O)CNC(=O)[C@@H](NC(=O)[C@H](C)NC(=O)[C@H](Cc1c[nH]c2ccccc12)NC(=O)[C@H](CCC(N)=O)NC(=O)[C@@H](Cc1ccccc1)NC(=O)COCCOCCNC(=O)CCC(C(=O)O)N1CCN(CC(=O)O)CCN(CC(=O)O)CCN(CC(=O)O)CC1)C(C)C)C(N)=O (stereo partly drawn) [lutetium-177 labelled] — tissue uptake (BALB/c nu/nu mice, small intestine; 250 pmol, 1 h, with: PA 300 µg): 0.7 ± 0.3 %ID/g
O=C(Nc1cncc(-c2nc3ccccc3o2)c1)c1ccc(N2CCNCC2)c([N+](=O)[O-])c1 — EC50 (J774.A1; cytotoxicity): 0.9 µM
CCc1cc(C(=O)NC)c2nccc(N3CCc4c(cc(Cn5ccnc5)cc4-c4cn(C)nc4C(F)(F)F)C3=O)c2c1 — liver weight change (Sprague Dawley rat; oral, 100 mg/kg once daily, 7 days; baseline: vehicle): -1.1%
CCCC1=C(C(=O)OCC)C(c2ccc(Cl)cc2C)C2=C(CC(c3ccc(Cl)c(OC)c3)OC2=O)N1 (mixture of isomers) — EC50 (J774.A1; cytotoxicity): > 20 µM
Cn1cc(-c2ccc(-c3cncc(Cl)c3N3CCC4(CCNC4=O)CC3)cc2)cn1 — log2 fold change (COLO 205; gene expression, microarray, refers to: LGALS1 mRNA; concentration not given, 2 h; baseline: untreated cells): 3.43
